Results of several laboratories.
Several values in a cell are separate wells, animals, samples, runs or records. Numbers after ± are the reported error. ≈ marks a conversion by molar mass, not a printed value.

SMILES	tested on	test	system	conditions	how to read	quantity	value
C[n+]1cc(/C=N/NC(=O)c2cccc(C(=O)N/N=C/c3cc4ccccc4[n+](C)c3)c2)cc2ccccc21	hp2 hairpin duplex DNA	FRET melting	–	1 µM	–	ΔTm	0.6 ± 0.1 °C
C=CC(=O)Nc1cc(Nc2nccc(-c3c[nH]c4ccccc34)n2)c(OC)cc1N(C)CCN(C)C	–	storage stability	human plasma	10 d, on ice, LQC level	–	recovery	56.6%
Cc1ccc(OCC(=O)N(Cc2cccs2)c2ccn[nH]2)cc1	–	–	human plasma	750 ng/mL, 1 h, 37 °C, unit not given	relative to: time zero	remaining compound	76
O=C(C1CCN(c2nnnn2-c2ccccc2)CC1)N1CCCc2ccccc21	–	–	male Sprague-Dawley rat, plasma	intravenous, 1 mg/kg	–	C0	2.07 µg/mL
CCCCN1C(=O)c2cccc3c(NCCCCCN4CCOCC4)ccc(c23)C1=O	–	–	methanol	–	–	Stokes shift	91 nm
O=C1c2sc(-c3ccc(N4CCC(F)C4)nc3F)nc2CCN1c1cccnc1 (stereo not shown)	–	–	CD1 mouse, brain	i.v., dose not given, 0.033 h	–	concentration	647 ng/g and 542 ng/g and 652 ng/g
CCCCN1C(=O)c2cccc3c(NCCCCCCCCCCN4CCOCC4)ccc(c23)C1=O	–	–	toluene	–	–	Stokes shift	84 nm
COCC1CN(C2CCN(c3cc(OC)c(Nc4ncc(Br)c(Nc5ccc6c(c5P(C)(C)=O)OCCO6)n4)cc3C)CC2)C1	–	–	EGFR-mutant NSCLC patients, plasma	oral, 240 mg single dose, geometric mean	–	AUC(0-t)	49.9 µg·h/mL
CCc1cnc(NC(=O)c2cc(S(=O)(=O)N3CCOCC3)ccc2N(C)C2CCCC2)s1	–	–	mouse, serum	10 mg/kg, 3 doses	–	Sodium	154 mEq/L
COc1cc2c(cc1OC)[C@H]1C[C@H](O)[C@H](CC(C)C)CN1CC2	–	refers to: non-deuterated analyte	healthy human male, plasma	oral, 25 mg, geometric mean, [14C]-tetrabenazine dosed	–	MRT(0-t)	3.69 h
N=C(N)NCCC[C@@H]1NC(=O)[C@H](CO)NC(=O)[C@@H](NC(=O)[C@H](CO)NC(=O)[C@H](CO)NC(=O)[C@H](Cc2c[nH]c3ccccc23)NC(=O)CNC(=O)[C@H](CO)NC(=O)[C@@H](N)Cc2c[nH]c3ccccc23)CSSC[C@@H](C(=O)NCC(=O)O)NC(=O)[C@H](CO)NC1=O	–	–	healthy elderly humans	dose not given, younger subgroup, higher dose	–	adaptive tracking performance decrease	3 to 5%
Cc1cc(C(=O)NC(C)(C)CO)cc(C)n1	–	LC-MS metabolite profiling	Sprague-Dawley rat, both sexes, plasma	oral, 100 mg/kg of parent drug, 4 (unit not given)	higher = more metabolite	plasma peak area	130000 a.u.
O=C([O-])CN1CCN(CC(=O)[O-])CCN(CC(CCCc2ccccc2[N+](=O)[O-])N(CC(=O)[O-])CC(=O)[O-])CC1.[90Y+3] (stereo not shown)	–	TLC	human serum	0 h, pH 7, 37 °C	–	intact radiolabelled complex	100%
O=C(Nc1cnccc1-c1ccc([18F])nc1)c1ccnc(NC(=O)C2CC2)c1	–	ex vivo biodistribution, gamma counting	mouse, transgenic, GSK-3β, early stage, right kidney	intravenous, 120 min	–	SUV	0.225
O=C(O)CCCOc1ccc([18F])cc1-c1cc(-c2ccccc2C(F)(F)F)n(-c2ccccc2)n1	–	OLINDA/EXM from mouse data	human adults, kidney	–	–	absorbed dose	18.2 µGy/MBq
CC[C@H](C)[C@H](NC(=O)[C@H](N)Cc1ccc(O)cc1)C(=O)N[C@H]1CSSC[C@@H](C(=O)N(C)[C@H](C(=O)N[C@@H](CCCCN)C(=O)N[C@@H](CCCCN)C(N)=O)[C@@H](C)CC)NC(=O)[C@H](CCCNC(=N)N)NC(=O)[C@H](Cc2c[nH]cn2)NC(=O)[C@H](C)NC(=O)CN(C)C(=O)[C@H](Cc2c[nH]c3ccccc23)NC(=O)[C@H](CC(=O)O)NC(=O)[C@H](CCC(N)=O)NC(=O)[C@H](Cc2cn(C)c3ccccc23)NC(=O)[C@H](C(C)C)NC1=O	–	SPR-based competition	cynomolgus monkey, vitreous	intravitreal, 500 µg single, one month after injection, mean of eyes	–	concentration	~0.2 µM
OCC1OC(n2cnc3c(NCc4ccc(Br)s4)ncnc32)C(O)C1O (stereo not shown)	–	equilibrium dialysis	mouse plasma	0.5 µg/mL, 4 h, pH 7.4	–	fraction unbound	0.064
CC(C)[C@H](NC(=O)[C@H](Cc1c[nH]c2ccccc12)NC(=O)[C@H](CCCNC(=N)N)NC(=O)[C@H](CCCNC(=N)N)NC(=O)[C@@H](NC(=O)[C@@H](NC(=O)[C@H](CCCNC(=N)N)NC(=O)[C@@H](NC(=O)[C@@H](NC(=O)[C@H](CCCNC(=N)N)NC(=O)[C@H](CCCNC(=N)N)NC(=O)[C@@H](NC(=O)[C@H](Cc1c[nH]c2ccccc12)NC(=O)[C@H](CCCNC(=N)N)NC(=O)[C@H](CCCNC(=N)N)NC(=O)[C@@H](NC(=O)[C@H](CCCNC(=N)N)NC(=O)[C@H](CCCNC(=N)N)NC(=O)[C@@H](NC(=O)[C@H](Cc1c[nH]c2ccccc12)NC(=O)[C@H](CCCNC(=N)N)NC(=O)[C@@H](N)CCCNC(=N)N)C(C)C)C(C)C)C(C)C)C(C)C)C(C)C)C(C)C)C(C)C)C(=O)N[C@@H](CCCNC(=N)N)C(=O)N[C@@H](CCCNC(=N)N)C(=O)O	–	–	CD1 mouse, plasma	intravenous, 15 mg/kg, 16 h, [14C]-labelled compound	–	sodium	157 mEq/L
O=S1(=O)CC2CCCCC2CS1 (stereo not shown)	–	phase solubility, NMR	water	25 °C, added: hydroxypropyl-β-cyclodextrin 176 mM	–	solubility	21.4 mM (≈ 4420 µg/mL)
Cn1cnc([N+](=O)[O-])c1Sc1ccccc1C(=O)NCCC(N)=O	–	LC-MS/MS	CD-1 mouse, CD-1 mouse blood	1 µM, 15 min	–	remaining compound	76.3%
Cc1cc(-c2ccc(C(=O)[C@@H]3CCCC[C@H]3C(=O)Nc3cnn4c3C(=O)NCC4)cc2)[nH]n1	–	–	human, faeces	oral, 200 mg, 0-168 h	relative to: dose	cumulative radioactivity recovery	74.3% and 73.8% and 75.7% and 81.3%
CC(C)(O)c1ncc([S@](N)(=O)=NC(=O)Nc2c3c(cc4c2CCC4)CCC3)s1	–	refers to: Cardiac disorders	healthy human volunteers	oral, dose not given, single dose, all active arms	–	subjects with adverse events	2%
N#C[C@@H]1CC(F)(F)CN1C(=O)CNC(=O)c1ccnc2c(NC(=O)CCOCCOCCOCCOCCOCCOCCNC(=O)[C@H](CCCCNC(=O)CN3CCN(CC(=O)[O-])CCN(CC(=O)[O-])CCN(CC(=O)[O-])CC3)NC(=O)CCCc3ccc(I)cc3)cccc12.[177Lu+3]	–	–	PBS	1 h, 37 °C, 177Lu-labelled	–	radiochemical stability	99.45 ± 0.2%

SMILES	tested on	test	system	conditions	how to read	quantity	value
O=C1c2sc(-c3ccc(N4CCC(CO)CC4)nc3F)nc2CCN1c1cccnc1	–	–	CD1 mouse, brain	i.v., dose not given, 0.083 h	–	concentration	479 ng/g and 414 ng/g and 449 ng/g
CN(Cc1cc(C2CC2)on1)C(=O)c1cccc(-c2ccc(F)cc2)c1	–	–	male ICR/CD-1 mouse, liver microsomes	2 µM, 30 min, pH 7.5, without ABT	–	remaining compound	18.1%
C=CC(=O)Nc1cc(Nc2nccc(-c3cn(C)c4ccccc34)n2)c(OC)cc1N(C)CCNC	–	storage stability	human dried blood spots	5 h, on ice, low QC level	–	recovery	99.7%
CCCCN1C(=O)c2cccc3c(NCCCN4CCOCC4)ccc(c23)C1=O	–	–	dichloromethane	–	–	fluorescence quantum yield	0.46
N#C[C@@H]1CC(F)(F)CN1C(=O)CNC(=O)c1ccnc2c(NC(=O)C(CCCCNC(=O)CCOCCOCCOCCOCCOCCOCCNC(=O)CN3CCN(CC(=O)[O-])CCN(CC(=O)[O-])CCN(CC(=O)[O-])CC3)NC(=O)CCCc3ccc(I)cc3)cccc12.[68Ga+3] (stereo partly shown)	–	–	human serum	120 min, 37 °C, 68Ga-labelled	–	radiochemical stability	97.54 ± 0.6%
CC(C(=O)O)n1nc(Cn2cc3cc(OCC[18F])c(Cl)cc3n2)c2ccccc2c1=O (racemic)	–	–	rat, spleen	5 min	–	tracer uptake	0.14 %ID/g
COc1cccc(OC)c1-c1cc(C(=O)NC2(C(=O)O)C3CC4CC(C3)CC2C4)nn1-c1ccc(C(=O)N(C)CCCN(C)C(=O)[C@H](CCCCNC(=O)[C@H](CC(C)C)NC(=O)C2OC2C(=O)O)NC(=O)CN2CCN(CC(=O)[O-])CCN(CC(=O)[O-])CCN(CC(=O)[O-])CC2)cc1C(C)C.[177Lu+3] (mixture of isomers)	–	–	mouse HT-29 xenograft	168 h, biodistribution	relative to: tumour over stomach	tumour-to-stomach ratio	24.1
CCCCN1C(=O)c2cccc3c(NCCN4CCOCC4)ccc(c23)C1=O	–	–	water	pH 6.0	–	Stokes shift	97 nm
CC[C@H](C)[C@H](NC(=O)[C@H](Cc1ccc(O)cc1)NC(=O)[C@@H](NC(=O)[C@H](CCCNC(=N)N)NC(=O)[C@@H](N)CC(=O)O)C(C)C)C(=O)N[C@@H](Cc1c[nH]cn1)C(=O)N1CCC[C@H]1C(=O)O	–	LC-MS/MS	Sprague-Dawley rat, both sexes, plasma	subcutaneous, 10 mg/kg/day, day 0, 0.5 h, 30 min	–	plasma concentration	0.0117 µg/mL
CN(O)C(=O)CCC(=O)NCCCN(CCCCN(CCCNC(=O)CCC(=O)N(C)O)C(=O)CCC(=O)N(C)O)C(=O)CCC(=O)N(C)O.[89Zr]	–	radio-TLC	aqueous buffer	1 d, pH 8.5, 37 °C, 89Zr-labelled complex, added: DTPA 1000-fold excess	–	intact complex	99.3 ± 0.5%
O=C(Nc1cnccc1-c1ccc([18F])cc1)c1ccnc(NC(=O)C2CC2)c1	–	–	FVB/NJ mice (both sexes), spleen	intravenous, dose not given, 120 min	–	SUV	0.15
COc1cccc(OC)c1-c1cc(C(=O)NC2(C(=O)O)C3CC4CC(C3)CC2C4)nn1-c1ccc(C(=O)N(C)CCOCCOCCN(C)C(=O)[C@H](CCCCNC(=O)[C@H](CC(C)C)NC(=O)C2OC2C(=O)O)NC(=O)CN2CCN(CC(=O)[O-])CCN(CC(=O)[O-])CCN(CC(=O)[O-])CC2)cc1C(C)C.[177Lu+3] (mixture of isomers)	–	–	mouse, HT-29 xenograft, spleen	4 h post injection	–	tissue uptake	0.83 %ID/g
COc1ccc(C(N)=O)cn1	–	–	Han Wistar rats, male, plasma	oral, 30 mg/kg, 0.50 h	–	plasma concentration	76.7 µM
O=C([O-])CN1CCN(CC(=O)[O-])CCN(C(CO)C(O)CO)CCN(CC(=O)[O-])CC1.[Dy+3] (stereo not shown)	–	–	cynomolgus monkey, muscle	dose not given, day 5	–	lanthanide tissue concentration	0.079 ± 0.011 nmol/g
Oc1ccc(Nc2ncnc3[nH]c(/C=C/c4ccccc4)nc23)cc1	–	HPLC	solution	after 1 h light exposure	–	purity	99%
CCCN(C)c1cc(C(F)(F)F)nc(SCCC(=O)NCc2ccco2)n1	–	–	Wistar rat, plasma	intraperitoneal, 25 mg/kg, 2 h post-dose	relative to: vehicle control	plasma troponin I	increased
[11CH3]N1CCC(NC(=O)c2cc(-c3c(O)cc(O)cc3Oc3ccc([N+](=O)[O-])cc3)on2)CC1	–	–	healthy female Wistar rats, kidneys	intravenous, 30 min	–	standardized uptake value	5.8 ± 0.5 g/mL
C/C(N)=N/C(=N\S(=O)(=O)c1ccc(C(F)(F)F)cc1)N1C[C@H](c2ccccc2)C(c2ccc(Cl)cc2)=N1	–	–	male C57BL/6 mouse, kidney	intravenous, 10 mg/kg	–	Cmax	16 µg/mL
CCCCN1C(=O)c2cccc3c(NCCCCCCN4CCOCC4)ccc(c23)C1=O	–	–	water	pH 6.0	–	Stokes shift	103 nm
C=C(NC(=O)c1csc(-c2nc3c(cc2O)-c2nc(cs2)C(=O)NC(C(C)O)C(=O)NC(=C(C)OC)c2nc(cs2)C(=O)NC2c4nc(cs4)C(=O)NC(COC(=O)c4c5c6c(cccc6n4O)COC(=O)C(OC4CC(C)(O)C(N(C)C)C(C)O4)C2OC5)c2nc-3cs2)n1)C(N)=O (stereo not shown)	–	–	ICR mice, Streptococcus pneumoniae ATCC 49169 infected, immunocompromised, blood	intravenous, 2 mg/kg/day twice daily	–	AUC(0-t)	0.159 µg·h/mL
C=CC(=O)Nc1cccc(Cn2ncc3cnc(Nc4cnn(CCOC)c4)nc32)c1	–	–	mouse, CD-1, both sexes, whole blood	5 µM, 30 min	–	remaining compound	71.2%
[123I]c1ccc2nc(-c3ccc(-n4ccnn4)nc3)cn2c1	–	–	male Wistar rat, brain	intravenous, 4 MBq, 3 h	–	tracer uptake	0.006 %ID/g
CC(C)Cc1ccc(C(C)C(=O)N[C@@H](CCCCNC(=O)CCOCCOCCOCCOCCOCCOCCNC(=O)CN2CCN(CC(=O)[O-])CCN(CC(=O)[O-])CCN(CC(=O)[O-])CC2)C(=O)Nc2cccc3c(C(=O)NCC(=O)N4CC(F)(F)C[C@H]4C#N)ccnc23)cc1.[177Lu+3] (stereo partly shown)	–	–	PBS	1 h, 37 °C, 177Lu-labelled	–	radiochemical stability	99.42 ± 0.2%
